Measurements gathered from unrelated publications.
A part holds a random share of what one study measured. Changes are numbered by the printed parent chain.

Set 1
Target: CREB3, bZIP domain (human)
Method: DHFR protein complementation
Matrix: yeast
Setting: single substitutions, most at no-binding floor
Relative to: wild-type JUN-FOS pair
Direction: higher = stronger binding
Starting sequence: JUN, bZIP domain (human); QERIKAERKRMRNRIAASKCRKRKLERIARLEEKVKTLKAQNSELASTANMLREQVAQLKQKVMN; partner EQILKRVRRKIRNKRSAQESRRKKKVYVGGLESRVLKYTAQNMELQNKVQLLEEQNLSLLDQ
Variant | binding fitness [natural log]
K34T | -1.4
V56P | -1.5
V35N | -1.62
V35W | -1.44
I28G | -1.37
E32R | -1.36
E32D | -1.59
L52Q | -1.41
L52W | -1.53
A49S | -1.42
E32H | -1.55
R30G | -1.38

Set 2
Target: RNA binding protein fox-1 homolog 2, RRM domain, GST-SBP tag (RBFOX2, Homo sapiens, UniProt O43251-10, residues 100-194)
Method: RNA Bind-n-Seq
Form: RNA
Matrix: in vitro
Tested at: 365 nM
Setting: natural RNA segment, single round, ends assumed
Relative to: no-protein control
Direction: higher = stronger binding
All sequences stand within: GGGAGUUCUACAGUCCGACGAUC … UGGAAUUCUCGGGUGCCAA
Oligonucleotide | RBNS enrichment (R)
AAAUUCGCAUGUUUAAUGUGAACUCUCCCCUCCCCAUCUGUGUUCUAACUUAUUUAUAAAAAGAUGAUCGCUGUAUUUUGAGUUUCAGCUGGAAACUUCUGUAAGGGGCA | 3.75
GUAUAACUUAGGGAGCGAAGAAAAUGUAGGCGCGAAAGUGAAAAGUGAGGCAGCUAGUUCUUCCUAUUCCAUUCUCGACCAACCUGCCCUUUCUUAAUAUGACUAGUGGU | 0.871
UGCCAAAGAUACAAGAAUAUGCAAAGUCCCUCCUCCUAACCCUCCUUCCCUCUAAGUCGGUGGCUUGAGAGCCGGGGAUGUGGAUUUGGUGUGGUUACAGGGUCCCCUGC | 0.426
CCUGCUGGGCUCUGGGCAGCCCUGCAGUUCCCUCUCUGGCUCUUCCACUCUCUGUGGGGUCCUGCGUACCUACAGGGUGGCCUGAAAACAGACUCCACACGUGGAAACAA | 0.451
UGGUCACAGCAUGGAGGCCUUGAGAGCCUGGCCAGGUGGCCCUCCAUGUGAGGUUGUGGUCACAGCAUGGGGGCCUUGAGAGCCUGGCCAGGUGGCCCUCCACGUGAGGU | 0.924
ACAUAUUGAUAGGUAUAACAUAAUUAAGGUUUAAAAAAAAUUAGACAUAGUUAUUCAGAUUUAGGACCAGUAAGGAUAGAACUUUCUCUUAUUUAUGAAAAAAAAUGCUA | 0.975
GCAUGGGUGUGUCUGGCCUCAUUCUGUAUCAGUCCAGUGUGUUCCUGUCAUAGUUUGUGUCUCCCAGGCAGGCCAUGGUAGGGGCCUCGCAGGGGCCAUUGGGGAGCACA | 2.82
GGUGGCGCCUGCCCUGAGGCUGCCCUGCGAUGGCCUGGGUGGGAGAGCUGGGUCACCGGUGCCGAUGCUCUGGCCCUCCCCAAUACGCUGCUUCGUCCCACUGCACCGCC | 0.374
AUACUUUCUCUUUUUUAUAUGAUGUCUAACAAAAAAAAAAUACAGCUCCAACAUUUUGAUUCCUGUUAAUUUUGUUCUUUAAUUAAAUGACUACUUAUUACAGGAAAUGA | 1.15
CCUAUAUGCCAGGCACUGUGCUAGGUGCUGGGAAUACCACUGAUGAGACAGACAAGGUCCCUACUCUUGUGGAGUUUACUUCUGGUGGAGGAGACAGAUGAUAAGUAAAC | 0.494
AUAGAAGGCUGUUAAAGUGACUCAGGCAGGAAUUAAUUAUUCUGUACCUAAGGGGUUACUUGUUUAAUGGGAUGGCAUUGACUUUUUGAAAAUCAAGUGGACUGAGUCAU | 0.389
AAAGGUGGUGGGGAUCCAGUUCAGGAGGGAGGGGUAUGUUUGUCUCCCAGUCUGGGCAAAGGAGUGCUAUGCGGAAUUCUCUGCAUAGCAGAAAAGCUCCCACCAUUUUC | 1.94

Set 3
Target: CCNE2, cyclin fold, Cln2 fusion (human)
Method: yeast growth competition, sequencing
Matrix: yeast
Setting: strong parent motif
Relative to: not given
Direction: higher = stronger binding
Starting sequence: CDC25A docking peptide (human); PPHRRRLLFACSP; partner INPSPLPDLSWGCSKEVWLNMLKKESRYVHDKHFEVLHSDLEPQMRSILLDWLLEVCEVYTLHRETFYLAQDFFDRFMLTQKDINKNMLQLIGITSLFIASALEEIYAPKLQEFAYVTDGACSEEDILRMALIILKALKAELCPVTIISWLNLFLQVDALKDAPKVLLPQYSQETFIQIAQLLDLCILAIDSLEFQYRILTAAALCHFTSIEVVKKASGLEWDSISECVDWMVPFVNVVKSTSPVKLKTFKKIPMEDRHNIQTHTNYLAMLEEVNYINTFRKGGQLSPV
Variant | normalised enrichment score
PPHRRRLLFACSR [P13R] | 0.827
PPHRRRLLFICSP [A10I] | 1.76
PPHRRRLLFACRP [S12R] | 1.59
PPHRRRLLFANSP [C11N] | 2.78
PPPRRRLLFACSP [H3P] | 0.754
PPHRRRLLFACSL [P13L] | 1.2
PPIRRRLLFACSP [H3I] | 1.67
PPHRRRLLFAMSP [C11M] | 1.12
PPWRRRLLFACSP [H3W] | 2.26
PPHRRRLLFACSW [P13W] | 0.649
PPHRRRLPFACSP [L8P] | 0.86
NPHRRRLLFACSP [P1N] | 1.29
VPHRRRLLFACSP [P1V] | 0.991
APHRRRLLFACSP [P1A] | 1.9
PPHRRRLLFCCSP [A10C] | 1.65
PPHRRRLLKACSP [F9K] | 0.847
GPHRRRLLFACSP [P1G] | 1.51
PPTRRRLLFACSP [H3T] | 2.49
PPHRRRLLGACSP [F9G] | 1.29

Set 4
Target: Fragile X messenger ribonucleoprotein 1, C-terminal low-complexity region (Fmr1, Mus musculus, UniProt P35922)
Method: RNA Bind-n-Seq
Form: RNA
Matrix: in vitro
Tested at: 200 nM
Setting: whole 134-nt RNA, ends assumed
With: 150 mM KCl
Relative to: input library
Direction: higher = stronger binding
All sequences stand within: GGGAGUUCUACAGUCCGACGAUC … UGGAAUUCUCGGGUGUCAAGG
Oligonucleotide | log2 enrichment
UGACUUUAGGAGAUACCUUAACUCGACGUUCCAUUAGCCAGCAGAAGUCCGGAGUUUCCAUUACCAUUGAUGACCCAGUCCGAACUGCCC | -0.204
CACAGACAACACGCACCCACACAGACACAGAGGGAAGGGGUUGGGAUGGGGACAGGGUGCACAGCAGGGCGGGGAAAGACCCCAGCCCCU | 1.26
CAAGUCCUGUGCUACACAUCGUAUGUACCGAAUCGGAAAGGUUUUUUUGGUUUGGAAAGUAUUAUGUUACGCCGUUCGGAUCUGCACUUC | -1.17
UCAAGUCCUGUGCUACACAUCGUAUGUACCGAAUCGGGGCCGGGCCGGGCCGGGAAAGUAUUAUGUUACGCCGUUCGGAUCUGCACUUCC | 0.265
AAGUCCUGUGCUACACAUCGUAUGUACCGAAUCGGGGUUUUUGGGGUGGGGAGGGGAAAGUAUUAUGUUACGCCGUUCGGAUCUGCACUU | 1.19
UCCUGUGCUACACAUCGUAUGUACCGAAUCAAAUUUAAAUUUUUUUAAAUUUUUUUAAAAAAGUAUUAUGUUACGCCGUUCGGAUCUGCA | -0.54
UAACUUUCGAGGAGGAUCUGAUGGAUAUGGCAGUGGACGUGGAUUUGGGGAUGGCUAUAAUGGGUAUGGAGGAGGACCUGGAGGUGGCAA | 0.364
GCAGGAAGUAAAAACAAAUGUAAAUGCUUCGGAUAGUGGCAGGGGUGGGGGUUGCUAAGGAAAGGGUGGGAUGGGAGUGGGUAAAGAGUU | 0.263
UCAAGUCCUGUGCUACACAUCGUAUGUACCGAAUCGGAAAGGUUUUUGGAAAGGAAAGUAUUAUGUUACGCCGUUCGGAUCUGCACUUCC | -0.829
UAACUUUAGAGGAGGAUCUGAUGGAUAUGGCAGUGGACGUGGAUUUGGGGAUGGCUAUAAUGGGUAUGGAGAAGGACCUGGAGGUGGCAA | 0.246
AAGUCCUGUGCUACACAUCGUAUGUACCGAAUCGGGCCCCGGCCCCGGCCCCGGGGAAAGUAUUAUGUUACGCCGUUCGGAUCUGCACUU | -0.586
UCCUGUGCUACACAUCGUAUGUACCGAAUCGGGGUUUUUGGGGUUUUUGGGGUUUUUGGAAAGUAUUAUGUUACGCCGUUCGGAUCUGCA | 0.423
AAGUCCUGUGCUACACAUCGUAUGUACCGAAUCGGGGAAAGGAAAGGGGAAAGGGGAAAGUAUUAUGUUACGCCGUUCGGAUCUGCACUU | 0.252
GCAGGAAGCAAAAACAAAUGGAAAUGCUUCGGAUAGUGGCAGGGGUGGGGGUUGCUAAGGAAAGGGUGGGAUGGGAGUGGGUAAAGAGUU | -0.0437

Set 5
Target: Sal-like protein 4, full length isoform B (SALL4, Homo sapiens, UniProt Q9UJQ4-2, residues 1-616)
Method: universal PBM
Form: double-stranded DNA, one strand shown
Matrix: in vitro
Tested at: not given
Setting: 8-mer, flanks averaged, mean of replicates
Direction: higher = stronger binding
Oligonucleotide | E-score
AAGCAGGC | -0.251
ATTAAGCA | 0.196
GTGGGAAC | -0.227
ATCGCCCG | -0.256
CAGCACTG | -0.231
ACACTATC | 0.213
GGACAAGA | -0.081
AAGGCTCG | -0.232
GGTCATCA | 0.0894
CCAGCGGA | -0.348
AGAGATCG | -0.164
ACTGAAGC | -0.0365
CTCAATGC | 0.0151
CATAATCC | 0.274
AGAGCTAA | -0.0643
AATCGAAA | 0.102
CAGAGTGA | -0.224
GATACTGA | 0.0364
GCAGCTGC | -0.113
ATGCCAGC | -0.194
ATGTCATG | 0.212
CTCTTGAC | -0.162
GCCAGCGC | -0.292
GCCCCTAA | -0.22
CGGATCCG | -0.249

Set 6
Target: ABI1, truncated, D143A, DHFR fusion (Arabidopsis thaliana)
Method: DHFR PCA, deep sequencing
Matrix: yeast
Setting: methotrexate growth selection, single substitutions
With: (+)-ABA 0.39 µM
Relative to: wild-type fitted maximum
Direction: higher = stronger binding
Starting sequence: PYL1, truncated, DHFR fusion (Arabidopsis thaliana); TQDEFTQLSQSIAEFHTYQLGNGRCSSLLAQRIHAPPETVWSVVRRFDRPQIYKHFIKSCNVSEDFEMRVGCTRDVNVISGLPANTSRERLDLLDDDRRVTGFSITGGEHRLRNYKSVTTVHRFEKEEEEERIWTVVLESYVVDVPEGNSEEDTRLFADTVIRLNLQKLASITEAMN; partner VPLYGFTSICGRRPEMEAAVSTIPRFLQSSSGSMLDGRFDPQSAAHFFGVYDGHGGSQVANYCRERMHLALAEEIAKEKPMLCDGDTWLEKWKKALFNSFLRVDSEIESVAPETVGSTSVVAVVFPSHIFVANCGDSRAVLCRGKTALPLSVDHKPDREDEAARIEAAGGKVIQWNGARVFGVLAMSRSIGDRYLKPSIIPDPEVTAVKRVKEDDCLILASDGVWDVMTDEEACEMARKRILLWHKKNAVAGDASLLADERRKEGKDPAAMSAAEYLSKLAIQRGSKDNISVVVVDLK
Variant | relative binding score
N61H | 64.2%
L169P | 2.5%
D92F | -9.49%
A158I | 63.9%
F47H | -14.4%
T160W | -1.99%
R98D | 2.45%
V143F | 2.91%
M68H | 7.42%
L29P | -0.731%
R45F | -7.67%
V43T | 5.8%
D96T | -6.66%
E38G | 5.68%
V145Y | -15.9%
F66V | 5.25%
